Measurements gathered from unrelated publications.
Numbers after ± are the reported error.

NS(=O)(=O)NCC(F)(F)c1ccccc1F — ED50 (protection from seizures; Frings audiogenic seizure mouse; intraperitoneal): 19 ± 2 mg/kg
Cc1nn(-c2ccc(S(=O)(=O)N[C@@H](CO)CC(C)C)cc2)c2nn3nnnc3nc12 — apoptotic cells (PC-3; PI/Hoechst staining; 1 µM, 24 h): 9.5 ± 0.7%
CC[C@H](C)[C@H](NC(C)=O)C(=O)N[C@H]1CSCC[C@@H](C(=O)N(C)[C@H](C(N)=O)[C@@H](C)CC)NC(=O)[C@H](CCCNC(=N)N)NC(=O)[C@H](Cc2c[nH]cn2)NC(=O)[C@H](C)NC(=O)CN(C)C(=O)[C@H](Cc2c[nH]c3ccccc23)NC(=O)[C@H](CC(=O)O)NC(=O)[C@H](CCC(N)=O)NC(=O)[C@H](Cc2cn(C)c3ccccc23)NC(=O)[C@H](C(C)C)NC1=O — IC50 ratio (classical complement activation, ELISA C3b deposition; normal human plasma; baseline: parent disulfide-linked peptide): 2
CC(=O)N[C@@H](CC(N)=O)C(=O)NCC(=O)N[C@@H](C)C(=O)N[C@@H](C)C(N)=O — rate constant k1 (Asn-Gly peptide isomerisation to succinimide; 1H NMR time course; pH 7.4, 46 °C): 0.0498 h⁻¹
CC(C)[C@H](N)C(=O)N1CCC[C@H]1C(=O)NCC(=O)NCC(=O)O — activation energy (diketopiperazine formation, Arrhenius plot, ESI-MS; 1-propanol; 70, 80, 90 °C, 0.5% acetic acid): 20.3 ± 0.239 kcal/mol
COc1ccc2c(c1)c(CC(=O)OCC(=O)OC(C)(C)C)c(C)n2C(=O)c1ccc(Cl)cc1 — latency of nociceptive response (hot plate test; BALB/c mice; 50 mg/kg, 90 min): 13.9 ± 1.11 s
CCCC[C@H](NC(=O)[C@@H](NC(=O)[C@H](CC(=O)O)NC(=O)[C@H](CCC(N)=O)NC(=O)[C@H](CC(C)C)NC(=O)[C@H](CC(C)C)NC(=O)[C@H](CCCN)NC(=O)[C@H](CCCNC(=N)N)NC(=O)[C@H](C)NC(=O)[C@H](CO)NC(=O)[C@H](CC(C)C)NC(=O)[C@H](CCC(N)=O)NC(=O)[C@H](CC)NC(=O)[C@H](CC(C)C)NC(=O)[C@@H](NC(=O)[C@H](CCCN)NC(=O)[C@H](CCCNC(=N)N)NC(=O)[C@H](Cc1ccc(O)cc1)NC(=O)[C@H](CO)NC(=O)[C@H](CCC(N)=O)NC(=O)[C@@H](NC(=O)[C@H](Cc1ccccc1)NC(=O)[C@@H](NC(=O)[C@H](C)NC(=O)[C@H](CC(=O)O)NC(=O)[C@H](C)NC(=O)[C@H](Cc1ccc(O)cc1)NC)[C@@H](C)CC)[C@@H](C)O)C(C)C)[C@@H](C)CC)C(=O)N[C@@H](CC(=O)O)C(=O)NCCCCNC(=N)N — relative potency (GH release; rat, male, serum; intravenous, 1 µg/kg, 15 min; baseline: reference GHRH agonist JI-38): 1.26
CC(=O)[O-].[Cu+2].[O-]c1ccc(Br)cc1C=NCCN1CCOCC1 — IC50 (nitric oxide scavenging): 240 µM
CCC1CC2C(C)=CC3C(=O)CCCC3C=CC(C)=CC2C(=O)O1 (stereo not drawn) — oligomer reduction (A11 dot blot, measured: amyloid-beta oligomers; 5XFAD mouse, hippocampus; oral gavage, 30 mg/kg/day, 5 days; baseline: vehicle): 3.21%
COc1cc(CNC(=O)C[C@H](C)CCC=C(C)C)ccc1OCc1cn(-c2ccc(Cl)c(Cl)c2)nn1 — growth percent (MCF7 breast cancer cells; SRB; 10 µM, 48 h): 49.6%
O=C([O-])CN1CCN(CC(=O)[O-])CCN(C(CCC(=O)NC(Cc2c[nH]c3ccc(O)cc23)C(=O)NCCc2c[nH]c3ccc(O)cc23)C(=O)O)CCN(CC(=O)[O-])CC1.[Gd+3] (stereo not drawn) — contrast-to-noise ratio (MR imaging; mice CFA inflammation; baseline: DOTA-Gd): 4 to 10 fold
CO[C@@H]1[C@H](O)[C@@H](COP(=O)(O)OP(=O)([O-])C(Cl)(Cl)P(=O)(O)OP(=O)(O)OC[C@H]2O[C@@H](n3cnc4c(=O)[nH]c(N)nc43)[C@H](O)[C@@H]2O)O[C@H]1n1c[n+](C)c2c(O)nc(N)nc21 — IC50 (cap-dependent translation, inhibitor; rabbit reticulocyte lysate; preincubated 60 min in lysate): 1.23 ± 0.11 µM
C=C(c1ncc(C(=O)O)cn1)c1cc2c(cc1C)C(C)(C)CCC2(C)C — log2 fold change (RNA sequencing, measured: Rbp1; rat, brain; dose not given, 24 h; baseline: vehicle): -0.58
COc1cc(CNC(=O)C[C@H](C)CCC=C(C)C)ccc1OCc1cn(-c2ccccc2Cl)nn1 — growth percent (MCF7 breast cancer cells; SRB; 10 µM, 48 h): 40.6%
CCCC[C@H](NC(=O)[C@@H](NC(=O)[C@H](CC(=O)O)NC(=O)[C@H](CCC(N)=O)NC(=O)[C@H](CC(C)C)NC(=O)[C@H](CC(C)C)NC(=O)[C@H](CCCN)NC(=O)[C@H](CCCNC(=N)N)NC(=O)[C@H](C)NC(=O)[C@H](CO)NC(=O)[C@H](CC(C)C)NC(=O)[C@H](CCC(N)=O)NC(=O)[C@H](CC)NC(=O)[C@H](CC(C)C)NC(=O)[C@@H](NC(=O)[C@H](CCCN)NC(=O)[C@H](CCCNC(=N)N)NC(=O)[C@H](Cc1ccc(O)cc1)NC(=O)[C@H](CO)NC(=O)[C@H](CCC(N)=O)NC(=O)[C@@H](NC(=O)[C@H](Cc1ccccc1)NC(=O)[C@@H](NC(=O)[C@H](C)NC(=O)[C@H](CC(=O)O)NC(=O)[C@@H](C)NC(=O)[C@H](Cc1ccc(O)cc1)NC)[C@@H](C)CC)[C@@H](C)O)C(C)C)[C@@H](C)CC)C(=O)N[C@@H](CC(=O)O)C(=O)N[C@@H](CCCNC(=N)N)C(=O)NCC — relative potency (GH release; rat, male, serum; subcutaneous, 3 µg/kg, 15 min; baseline: reference GHRH agonist JI-38): 1.15

For quick reference, copied from above:
CC(=O)N[C@@H](CC(N)=O)C(=O)NCC(=O)N[C@@H](C)C(=O)N[C@@H](C)C(N)=O — rate constant k1 (Asn-Gly peptide isomerisation to succinimide; 1H NMR time course; pH 7.4, 46 °C): 0.0498 h⁻¹
C=C(c1ncc(C(=O)O)cn1)c1cc2c(cc1C)C(C)(C)CCC2(C)C — log2 fold change (RNA sequencing, measured: Rbp1; rat, brain; dose not given, 24 h; baseline: vehicle): -0.58
